Results gathered from unrelated publications.
Lines come from different studies, so protocols differ.
Cell line: IGROV-1

CCN(CC)c1ccc(C=NNC(=O)CSc2nc3ccccc3c(=O)n2Cc2ccc(S(N)(=O)=O)cc2)c(O)c1 — TGI (NCI five-dose screen): > 100 µM
Cc1cc(=O)[nH]c(=O)n1Cc1cn(-c2cc3ccccc3oc2=O)nn1 — growth (NCI60 single dose; 10 µM): 97.4%
CCOc1ccc(-c2nc3cc(-c4nc5cc(N6CCN(C)CC6)ccc5[nH]4)ccc3[nH]2)cc1OCC — growth percent (SRB; 10 µM, 48 h): 50.5%
O=C(Nc1nnc2[nH]c(=S)[nH]c(-c3ccc(Cl)cc3)c1-2)c1ccccc1 — cell growth (SRB; 10 µM, NCI60 single-dose screen; relative to: untreated): 107%
CCCN1CCN(c2ccc3nc(-c4ccc5nc(-c6cc(OC)ccc6OC)[nH]c5c4)[nH]c3c2)CC1 — growth percent (SRB; 10 µM, 48 h): 103%
Cc1cc(-c2ccccc2)n(-c2nc(-c3ccc(Cl)cc3)c3c(NC(=O)c4ccccc4)nnc-3[nH]2)n1 — cell growth (SRB; 10 µM, NCI60 single-dose screen; relative to: untreated): 98.4%
CCCN1CCN(c2ccc3[nH]c(-c4ccc5[nH]c(-c6cc(OC)c(OC)c(OC)c6)nc5c4)nc3c2)CC1 — growth percent (SRB; 10 µM, 48 h): 101%
O=c1ccn(Cc2cn(-c3cc4ccccc4oc3=O)nn2)c(=O)[nH]1 — growth (NCI60 single dose; 10 µM): 91.5%
COc1ccc(OC)c(-c2nc3ccc(-c4nc5ccc(N6CCN(C)CC6)cc5[nH]4)cc3[nH]2)c1 — growth percent (SRB; 10 µM, 48 h): 94.7%
Cn1cncc1C1=CN(c2ncnc3[nH]cnc23)CCS1 — TGI (ovarian cancer): 195 µM
CCCN1CCN(c2ccc3[nH]c(-c4ccc5[nH]c(-c6ccc(C(F)(F)F)cc6)nc5c4)nc3c2)CC1 — growth percent (SRB; 10 µM, 48 h): -83.5%
O=C1NCCc2[nH]c(-c3ccncc3)cc21 — IC50 (MTS; NCI60 panel): > 10 µM
S=C([S][Au-][P+](CCCCCC[P+]([Au-][S]C(=S)n1cccn1)(c1ccccc1)c1ccccc1)(c1ccccc1)c1ccccc1)n1cccn1 — log10 TGI (cell growth, NCI-60 screen; ovarian cancer): -4.77
C#C[C@@]1(O)[C@@H](CO)O[C@@H](n2ccc3c(N)ncnc32)[C@@H]1O — TGI (SRB; NCI-60 screen): 5.85 µM
CCCCN1CCN(c2ccc3[nH]c(-c4ccc5[nH]c(-c6ccc(OCC)c(OCC)c6)nc5c4)nc3c2)CC1 — growth percent (SRB; 10 µM, 48 h): 15.1%
Cc1cc(=O)[nH]n1-c1nc(-c2ccc(Cl)cc2)c2c(NC(=O)c3ccccc3)nnc-2[nH]1 — cell growth (SRB; 10 µM, NCI60 single-dose screen; relative to: untreated): 110%
O=C1NC(c2ccccc2)(c2ccccc2)C(=O)N1Cc1cn(-c2c3ccccc3nc3ccccc23)nn1 — growth (NCI60 single dose; 10 µM): 83.3%
Cc1n[nH]c2nc(-c3ccc(Cl)cc3)c3c(NC(=O)c4ccccc4)nnc-3n12 — cell growth (SRB; 10 µM, NCI60 single-dose screen; relative to: untreated): 109%
C#C[C@@]1(O)[C@@H](CO)O[C@@H](n2cc(F)c3c(N)ncnc32)[C@@H]1O — TGI (SRB; NCI-60 screen): 1.42 µM
Cc1cc(=O)[nH]c(=O)n1Cc1cn(-c2c3ccccc3nc3ccccc23)nn1 — growth (NCI60 single dose; 10 µM): 33%
CCOC(=O)CSc1nc(-c2ccc(Cl)cc2)c2c(NC(=O)c3ccccc3)nnc-2[nH]1 — cell growth (SRB; 10 µM, NCI60 single-dose screen; relative to: untreated): 92.5%

Some of these lines once more:
CCCN1CCN(c2ccc3[nH]c(-c4ccc5[nH]c(-c6ccc(C(F)(F)F)cc6)nc5c4)nc3c2)CC1 — growth percent (SRB; 10 µM, 48 h): -83.5%
O=C1NCCc2[nH]c(-c3ccncc3)cc21 — IC50 (MTS; NCI60 panel): > 10 µM
S=C([S][Au-][P+](CCCCCC[P+]([Au-][S]C(=S)n1cccn1)(c1ccccc1)c1ccccc1)(c1ccccc1)c1ccccc1)n1cccn1 — log10 TGI (cell growth, NCI-60 screen; ovarian cancer): -4.77
